Assay results of several laboratories.
Lines come from different studies, so protocols differ. “And” joins repeats or separate records; there may be more than shown. ± marks the error that the study gave.
Cell line: A549

Structure (SMILES) = CCN(CC)c1ccc(-c2oc3cc4ccccc4cc3c(=O)c2O)cc1; read-out = cytotoxicity; time = 24 h; together with = visible light; IC50 = 10.7 ± 1.2 µM
Structure (SMILES) = COC(OC)c1ccc(-c2ccc(O)cc2)c(C(=C2C=CC(=O)C=C2)c2ccc(O)cc2)c1C#Cc1ccc(O)cc1; read-out = cell growth or viability; technique = MTT; time = 48 h; IC50 = > 50 µM
Structure (SMILES) = COc1ccccc1/C=C1\C(=O)N(C)c2ccc(Nc3nc(C)nc4ccccc34)cc21; read-out = cell growth or viability; technique = MTT; IC50 = 2.72 µM
Structure (SMILES) = COC1=C(OC)C(O)C(CC=C(C)CCC=C(C)CCC=C(C)C(=O)O)C(C)C1=O (stereo not drawn); read-out = cell growth or viability; technique = MTS; IC50 = 6.63 µM and 14.9 µM
Structure (SMILES) = c1ccc2c(-c3cn(-c4ccncc4)nn3)c3ccccc3c(-c3cn(-c4ccncc4)nn3)c2c1; read-out = cell growth or viability; technique = MTT; time = 24 h; IC50 = > 20 µM
Structure (SMILES) = CCCc1cc2cc(-n3nc(N)c4c3CC(C)(C)CC4=O)cc(N3CCC(O)CC3)c2c(=O)[nH]1; read-out = cell growth or viability; technique = MTS; IC50 = > 50 µM
Structure (SMILES) = CC(=O)NCCOCCOCCNC(=O)c1cc(C(=O)N2CCNCCNCCNCC2)c(O)c(C(=O)N2CCNCCNCCNCC2)c1; read-out = cell growth or viability; technique = MTT; time = 24 h; IC50 = > 1000 µM
Structure (SMILES) = O=C1C(Cl)=C(Cl)C(=O)c2c(O)ccc(O)c21; read-out = cell growth or viability; technique = MTT; IC50 = 14.7 µM
Structure (SMILES) = CCCC[N+]1=c2cc3c4cc2[O][Mn-2]1(=[C]=O)(=[C]=O)(=[C]=O)[n+]1ccc(cc1)C(=O)Nc1ccccc1NC(=O)c1cc[n+](cc1)[Mn-2](=[C]=O)(=[C]=O)(=[C]=O)([O]3)[N+]=4CCCC; read-out = cell growth; technique = MTT; time = 48 h; notes = LED light photolysis 1 h; IC50 = 2.34 ± 0.1 µM
Structure (SMILES) = Cc1nc(Nc2ccc3c(c2)/C(=C/c2ccccc2)C(=O)N3)c2ccccc2n1; read-out = cell growth or viability; technique = MTT; IC50 = 42.7 µM
Structure (SMILES) = CCOC(=O)/C=C1\S/C(=N\N=C\c2cccc3cc4ccccc4nc23)N(c2cccc(OC)c2)C1=O; read-out = cell growth or viability; technique = MTT; time = 48 h; IC50 = > 50 µM
Structure (SMILES) = CCCCCCC(=O)[O][Pt]([NH2])([NH2])([Cl])([Cl])[O]C(=O)CCC(C)C1CCC2C3CCC4CC(O)CCC4(C)C3CCC12C (stereo not drawn); read-out = cell growth or viability; technique = MTT; IC50 = 1.2 µM
Structure (SMILES) = O=C(/C=C/Sc1ccc(C(F)(F)F)cn1)c1ccccc1; read-out = cell growth or viability; technique = ATP luminescence; time = 48 h; IC50 = 16.1 µM
Structure (SMILES) = CCCCCCCC(=O)Oc1c(C)c(OC)c2c(/C=C/c3ccccc3)c(CCCCCC)c(=O)oc2c1C; read-out = cell growth or viability; technique = SRB; time = 72 h; IC50 = > 50 µM
Structure (SMILES) = C=CC(=O)N1CC2C(=O)N(CCN(C)C)c3c(c4cc(Cl)c(-c5c(O)cccc5F)nc4n(-c4c(C)ccnc4C(C)C)c3=O)N2CC1C (stereo not drawn); read-out = cell growth or viability; IC50 = > 10 µM
Structure (SMILES) = Cc1ccc(C(C)C)cc1.Cc1ccc(C(C)C)cc1.Cc1ccc(C(C)C)cc1.Cc1ccc(C(C)C)cc1.O=S(=O)(O)C(F)(F)F.O=S(=O)(O)C(F)(F)F.O=S(=O)(O)C(F)(F)F.O=S(=O)(O)C(F)(F)F.c1ccc2c3c4ccccc4c(c2c1)-c1cn(nn1)-c1cc[n+](cc1)[Ru-]1[O]c2cc4c(cc2=[O+]1)[O][Ru-]([O+]=4)[n+]1ccc(cc1)-n1cc(nn1)-c1c2ccccc2c(c2ccccc12)-c1cn(nn1)-c1cc[n+](cc1)[Ru-]1[O]c2cc4c(cc2=[O+]1)[O][Ru-]([O+]=4)[n+]1ccc(cc1)-n1cc-3nn1; read-out = cell growth or viability; technique = MTT; time = 24 h; IC50 = > 20 µM
Structure (SMILES) = C=CCOc1c(C)c(OC)c(C(=O)/C=C/c2ccccc2)c(OCC=C)c1C; read-out = cell growth or viability; technique = SRB; time = 72 h; IC50 = > 50 µM
Structure (SMILES) = CCCc1cc2cc(-n3nc(C(F)(F)F)c4c3CC(C)(C)CC4=O)cc(N3CCC(O)CC3)c2c(=O)[nH]1; read-out = cell growth or viability; technique = MTS; IC50 = 4.69 µM
Structure (SMILES) = CN1CCC(N[C@@H]2CCc3[nH]c4c(C(N)=O)ccc(-c5ccccc5Cl)c4c3C2)CC1; read-out = cell growth or viability; IC50 = 0.0364 µM
Structure (SMILES) = O=C(O)C(CO)NCc1cc(Cl)c(OCc2cccc(-c3ccccc3)c2Br)cc1OCc1cccnc1 (stereo not drawn); read-out = cell growth or viability; technique = MTT; IC50 = > 10 µM
Structure (SMILES) = CCCCCC(=O)Oc1c(C)c(OC)c2c(/C=C/c3ccccc3)c(CCCC)c(=O)oc2c1C; read-out = cell growth or viability; technique = SRB; time = 72 h; IC50 = > 50 µM
Structure (SMILES) = CO[C@@H](C[C@H]1C(C)=CC[C@@H]2[C@]3(C)C[C@H](O[C@@H]4O[C@@H](C)[C@H](O)[C@@H](O)[C@H]4O)[C@@H](O)C(C)(C)[C@H]3CC[C@]21C)[C@H](N)C(=O)O; read-out = cell growth or viability; technique = CCK-8; time = 72 h; IC50 = > 10 µM
Structure (SMILES) = CC(C)[C@@H]1NC(=O)[C@@H](CCCNC(=N)N)NC(=O)[C@H]([C@@H](C)O)NC(=O)[C@@H](CCCN)NC(=O)[C@H](Cc2cccc(F)c2)NC(=O)[C@@H](Cc2ccccc2)NC1=O; read-out = cell growth or viability; technique = ATP luminescence; time = 72 h; IC50 = > 100 µM
Structure (SMILES) = NC(=O)c1ccc(-c2ccccc2Cl)c2c3c([nH]c12)CC[C@@H](N)C3; read-out = cell growth or viability; IC50 = 0.0256 µM
Structure (SMILES) = O=[C]=[Mn-2]12(=[C]=O)(=[C]=O)[O]c3cc4c(cc3=[N+]1CCc1ccccc1)[O][Mn-2](=[C]=O)(=[C]=O)(=[C]=O)([N+]=4CCc1ccccc1)[n+]1ccc(cc1)C(=O)Nc1ccccc1NC(=O)c1cc[n+]2cc1; read-out = cell growth; technique = MTT; time = 48 h; notes = LED light photolysis 1 h; IC50 = 2.67 ± 0.89 µM
Structure (SMILES) = O=C1CS/C(=N\N=C\c2cccc3cc4ccccc4nc23)N1c1ccc(F)cc1; read-out = cell growth or viability; technique = MTT; time = 48 h; IC50 = 26.7 µM
Structure (SMILES) = CCCc1cc2cc(-n3nc(CC)c4c3CC(C)(C)CC4=O)cc(N3CCC(O)CC3)c2c(=O)[nH]1; read-out = cell growth or viability; technique = MTS; IC50 = 4.41 µM
Structure (SMILES) = CCCC[N+]1=c2cc3c4cc2[O][Mn-2]1(=[C]=O)(=[C]=O)(=[C]=O)[n+]1ccc(cc1)C(=O)NCCNC(=O)c1cc[n+](cc1)[Mn-2](=[C]=O)(=[C]=O)(=[C]=O)([O]3)[N+]=4CCCC; read-out = cell growth; technique = MTT; time = 48 h; notes = LED light photolysis 1 h; IC50 = 2.89 ± 0.12 µM
Structure (SMILES) = Cc1nc(N(C)c2ccc3c(c2)/C(=C/c2ccccc2C)C(=O)N3C)c2ccccc2n1; read-out = cell growth or viability; technique = MTT; IC50 = 5.84 µM
Structure (SMILES) = CC(=O)NCCOCCOCCOCCNC(=O)c1cc(C(=O)N2CCNCCNCCNCC2)c(O)c(C(=O)N2CCNCCNCCNCC2)c1; read-out = cell growth or viability; technique = MTT; time = 24 h; IC50 = > 1000 µM
Structure (SMILES) = CNC(=O)C1CCCN(C(=O)C2CC3CCC2N3C(=O)[C@@H]2C[C@@H](O)CN2C(=O)NCc2cccc(Cl)c2F)C1 (mixture of isomers); read-out = cell growth or viability; technique = CCK-8; time = 72 h; IC50 = 0.12 µM
Structure (SMILES) = COc1cc(C2=CCCc3c2ccc(OC)c3OCc2ncc([N+](=O)[O-])n2C)cc(OC)c1OC; time = 4 h; notes = anoxic; IC50 = 5.25 ± 0.46 µM
Structure (SMILES) = CCCCCCCC(=O)[O][Pt]([Cl])([Cl])[O]C(=O)CCCCCCC.N.N; read-out = cell growth or viability; technique = MTT; IC50 = ~0.05 µM and 0.05 µM
Structure (SMILES) = CCCN1C(=O)CS/C1=N\N=C\c1cccc2cc3ccccc3nc12; read-out = cell growth or viability; technique = MTT; time = 48 h; IC50 = > 50 µM
Structure (SMILES) = C=CCOCO[C@H](C(=O)NC[C@@H]1C[C@@H](OC)C(C)(C)[C@@H](C[C@@H](COC)OC)O1)[C@@]1(OC)CC(=C)[C@@H](C)[C@@H](C)O1; read-out = cell viability; technique = sulforhodamine B; time = 72 h; temperature = 37 °C; together with = 100 µM H2O2; IC50 = 1.48 ± 0.39 µM
Structure (SMILES) = O=C(NCc1cc(F)cc(F)c1)[C@@]1(O)CCN(c2ccc3[nH]ccc3c2)C1=O; read-out = cell growth or viability; IC50 = 0.3 µM
Structure (SMILES) = CCCc1cc2cc(-n3nc(C(C)C)c4c3CC(C)(C)CC4=O)cc(N3CCC(O)CC3)c2c(=O)[nH]1; read-out = cell growth or viability; technique = MTS; IC50 = 9.58 µM
Structure (SMILES) = Cc1nc(Nc2ccc3c(c2)/C(=C/c2ccccc2Cl)C(=O)N3C)c2ccccc2n1; read-out = cell growth or viability; technique = MTT; IC50 = 3.1 µM
Structure (SMILES) = CCOC(=O)/C=C1\S/C(=N\N=C\c2cccc3cc4ccccc4nc23)N(CC(C)C)C1=O; read-out = cell growth or viability; technique = MTT; time = 48 h; IC50 = > 50 µM
Structure (SMILES) = COc1c(C)c(OC(=O)c2ccc3ccccc3c2)c(C)c(O)c1C(=O)/C=C/c1ccccc1; read-out = cell growth or viability; technique = SRB; time = 72 h; IC50 = > 50 µM
Structure (SMILES) = COc1ccc(N2C(=O)CS/C2=N\N=C\c2cccc3cc4ccccc4nc23)cc1; read-out = cell growth or viability; technique = MTT; time = 48 h; IC50 = 39.5 µM
Structure (SMILES) = Cc1ccc2c(c1C#Cc1ccc(O)cc1)C(c1ccc(O)cc1)(c1ccc(O)cc1)c1cc(O)ccc1-2; read-out = cell growth or viability; technique = MTT; time = 48 h; IC50 = 13.1 µM
Structure (SMILES) = CCCc1cc2cc(-n3nc(C4CCC4)c4c3CC(C)(C)CC4=O)cc(N3CCC(O)CC3)c2c(=O)[nH]1; read-out = cell growth or viability; technique = MTS; IC50 = 6.78 µM
Structure (SMILES) = O=Cc1ccc(-c2ccc(O)cc2)c(C(=C2C=CC(=O)C=C2)c2ccc(O)cc2)c1C#Cc1ccc(O)cc1; read-out = cell growth or viability; technique = MTT; time = 48 h; IC50 = 10.6 µM
Structure (SMILES) = CCCc1cc2cc(-n3nc(C4CC4)c4c3CC(C)(C)CC4=O)cc(N3CCC(O)CC3)c2c(=O)[nH]1; read-out = cell growth or viability; technique = MTS; IC50 = 10.1 µM

Repeated from above:
Structure (SMILES) = CCOC(=O)/C=C1\S/C(=N\N=C\c2cccc3cc4ccccc4nc23)N(CC(C)C)C1=O; read-out = cell growth or viability; technique = MTT; time = 48 h; IC50 = > 50 µM
Structure (SMILES) = COc1c(C)c(OC(=O)c2ccc3ccccc3c2)c(C)c(O)c1C(=O)/C=C/c1ccccc1; read-out = cell growth or viability; technique = SRB; time = 72 h; IC50 = > 50 µM
Structure (SMILES) = COc1ccc(N2C(=O)CS/C2=N\N=C\c2cccc3cc4ccccc4nc23)cc1; read-out = cell growth or viability; technique = MTT; time = 48 h; IC50 = 39.5 µM
